Experimental data pooled from the literature.
Several values in a cell are separate wells, animals, samples, runs or records. ± gives the spread as reported.
Nuclear receptor subfamily 2 group C member 2 ligand-binding domain: Nuclear receptor subfamily 2 group C member 2, ligand-binding domain (Homo sapiens, UniProt P49116)
Chain of UniProt P49116 (whole entry, looked up): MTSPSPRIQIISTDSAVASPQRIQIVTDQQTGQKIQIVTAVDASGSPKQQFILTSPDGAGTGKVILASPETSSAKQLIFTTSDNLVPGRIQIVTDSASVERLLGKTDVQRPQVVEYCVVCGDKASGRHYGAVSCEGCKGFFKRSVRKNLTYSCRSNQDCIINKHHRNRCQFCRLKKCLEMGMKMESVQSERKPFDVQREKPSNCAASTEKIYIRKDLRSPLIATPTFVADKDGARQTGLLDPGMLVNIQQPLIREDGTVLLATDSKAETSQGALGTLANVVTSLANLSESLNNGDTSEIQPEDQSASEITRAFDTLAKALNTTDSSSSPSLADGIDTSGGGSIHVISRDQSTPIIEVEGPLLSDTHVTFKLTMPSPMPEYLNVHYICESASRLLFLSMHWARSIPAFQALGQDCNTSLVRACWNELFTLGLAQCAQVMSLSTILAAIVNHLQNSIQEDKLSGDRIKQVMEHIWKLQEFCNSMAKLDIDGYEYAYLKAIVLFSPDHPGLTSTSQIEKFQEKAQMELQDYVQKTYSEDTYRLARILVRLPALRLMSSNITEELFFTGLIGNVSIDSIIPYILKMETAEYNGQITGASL
Chain of UniProt Q04206 (whole entry, looked up): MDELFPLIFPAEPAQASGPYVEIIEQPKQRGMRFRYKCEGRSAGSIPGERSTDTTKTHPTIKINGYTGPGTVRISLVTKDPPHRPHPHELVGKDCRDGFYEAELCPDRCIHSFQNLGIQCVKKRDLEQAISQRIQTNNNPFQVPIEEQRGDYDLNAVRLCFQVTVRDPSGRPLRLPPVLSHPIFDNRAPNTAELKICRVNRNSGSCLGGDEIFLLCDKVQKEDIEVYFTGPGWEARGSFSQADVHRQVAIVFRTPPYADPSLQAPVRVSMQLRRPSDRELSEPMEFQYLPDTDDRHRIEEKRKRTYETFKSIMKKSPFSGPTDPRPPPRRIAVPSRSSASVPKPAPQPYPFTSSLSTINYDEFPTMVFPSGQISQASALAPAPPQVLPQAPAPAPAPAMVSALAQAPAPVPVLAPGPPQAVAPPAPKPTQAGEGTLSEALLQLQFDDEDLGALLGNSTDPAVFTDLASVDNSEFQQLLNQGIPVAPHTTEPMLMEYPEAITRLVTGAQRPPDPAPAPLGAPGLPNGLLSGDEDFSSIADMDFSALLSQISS
Chain of UniProt P61981 (whole entry, looked up): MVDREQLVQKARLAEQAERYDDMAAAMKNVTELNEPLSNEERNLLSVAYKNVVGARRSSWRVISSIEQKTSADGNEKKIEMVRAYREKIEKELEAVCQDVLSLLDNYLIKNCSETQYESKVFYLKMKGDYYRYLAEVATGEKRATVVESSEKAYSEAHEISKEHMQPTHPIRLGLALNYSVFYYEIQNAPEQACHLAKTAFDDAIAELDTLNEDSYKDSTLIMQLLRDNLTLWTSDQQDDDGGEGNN

Nc1cc(F)ccc1NC(=O)/C=C/c1cnn(C/C=C/c2ccccc2)c1 has a viability of 113% (OCI-Ly1; 1 µM, 120 h).
Under “log2 fold change”, Cc1cc(Nc2ncc(Cl)c(Nc3ccccc3S(=O)(=O)C(C)C)n2)c(OC(C)C)cc1C1CCNCC1 is recorded as -11.8 (CLB-GE; phosphoproteomics LC-MS/MS, refers to: IRS2 phosphorylation; 200 nM, 60 min; baseline: untreated).
Oc1cc(O)c2cc(O)c(-c3cc(O)c(O)c(O)c3)[o+]c2c1 has a viability of 165% (OCI-Ly1; 1 µM, 120 h).
CCn1cc(-c2cc(Cn3ccnc3)cc3c2CCN([C@H](c2cc(OC)ccn2)C2CC2)C3=O)c(C(F)(F)F)n1 has an EC50 of > 30 µM (Lu-65; cell growth, inhibitor; 120 h).
The EC50 of COc1cc(OC)cc(C(=O)Oc2cc(C=O)ccc2[N+](=O)[O-])c1 is reported as > 1000 µM (YWHAG/RELA, phospho-Ser45 p65 peptide (Homo sapiens, UniProt P61981+Q04206); ternary complex formation, stabilizer, fluorescence anisotropy).
For Cc1nc(NC(=O)N2CCC[C@H]2C(N)=O)sc1-c1ccnc(C(C)(C)C(F)(F)F)c1, the GR50 was 516 nM (HCC1954; resazurin growth rate inhibition; 72 h).
CC1=NN(c2ccc(C(=O)O)cc2)C(=O)/C1=C\c1ccc(-c2cc(C)c(C)cc2[N+](=O)[O-])o1 has a viability of 95% (OCI-Ly1; 1 µM, 120 h).
For Cn1cc(-c2ccc(-c3cncc(Cl)c3N3CCC4(CCNC4=O)CC3)cc2)cn1, “log2 fold change” read -2.29 (COLO 205; gene expression, microarray, refers to: AURKA mRNA; concentration not given, 6 h; baseline: untreated cells).
Cc1ncsc1-c1ccc([C@H](C)NC(=O)[C@H]2C[C@H](O)CN2C(=O)[C@@H](NC(=O)CCCCCCCCCNC(=O)c2ccc3c(c2)[C@H](NC(=O)c2cc(-c4ccc(C(=O)N(C)C)c(O)c4)on2)CC3)C(C)(C)C)cc1 — result for “log2 fold change”: -0.32 (MV4-11; TMT proteomics, refers to: ATP9A/ATP9B protein; concentration not given, 6 h; baseline: DMSO).
CCn1cc(-c2cc(Cn3ccoc3=N)cc3c2CCN([C@@H](C)c2cc(OC)ccn2)C3=O)c(C(F)(F)F)n1 has an EC50 of 0.0199 µM (MV4-11; cell growth, inhibitor; 120 h).
For CCCCCCCCCc1ccc(OCCOCCOCCOCCOCCOCCOCCOCCOCCO)cc1, the EC50 was 24.4 µM (iPSC-derived cardiomyocytes; concentration-response curve, refers to: MyBP-C/MYH ratio; 24 h).
For Cn1cc(/C=C/C(=O)c2cccc(F)c2)cc1/C=C/C(=O)NO, the viability was 197% (OCI-Ly1; 0.1 µM, 120 h).
With Cc1cccc(-c2[nH]c(CNc3ccccc3F)nc2-c2ccc3ncnn3c2)n1 the XTT absorbance was 1.8 E-1 and 2.3 E-1 and 1.9 E-1 (pomalidomide-resistant MM1.S cells; XTT; 2 µM; higher = more viable cells).
The apoptotic cells of CCC(=O)NS(=O)(=O)c1ccc(-c2c(-c3ccccc3)noc2C)cc1 is reported as 0.82 ± 0.08 (COS-7; 50 µM, 24 h, 0.1% DMSO, unit not given; baseline: vehicle control).
Oc1cc(O)cc(/C=C/c2ccc(O)c(O)c2)c1 has a viability of 153% (OCI-Ly1; 0.5 µM, 120 h).
The Kd of O=C(O)c1cc(/N=N/c2ccc(O)c(C(=O)O)c2)ccc1O is reported as 32.1 pM (Nuclear receptor subfamily 2 group C member 2 ligand-binding domain; SPR imaging).
The cell viability of O=C(O)c1cc(O)c2c(c1)C(=O)c1cccc(O[C@@H]3O[C@H](CO)[C@@H](O)[C@H](O)[C@H]3O)c1C2=O is reported as 104 ± 7.1% (HepaRG co-cultured with HK-2; MTT; 33.33 µM, 24 h; baseline: untreated control).
The EC50 of CCNC(=O)c1noc(-c2cc(C(C)C)c(O)cc2O)c1-c1ccc(CN2CCOCC2)cc1 is reported as 1.7 µM (iPSC-derived cardiomyocytes; concentration-response curve, refers to: MyBP-C/MYH ratio; 24 h).
CCCCc1oc2ccc(NS(C)(=O)=O)cc2c1C(=O)c1ccc(OCCCN(CCCC)CCCC)cc1 has a fold change of 2.1 fold (human embryonic stem cell aggregates; mRNA level, microarray, refers to: FZD3; 0.5 µM, 120 h; baseline: untreated, up-regulated).
C=Cc1c2[n-]c(c1C)/C=c1\[n-]/c(c(C)c1C=C)=C\c1[n-]c(c(CCC(=O)O)c1C)/C=c1\[n-]c(c(C)c1CCC(=O)O)=C2.[Sn+4] has a fold change of 2.2 (SH-SY5Y; RNA-seq, refers to: TGM2 mRNA; 5 µM, 5 h; baseline: untreated cells).
O=C(/C=C/C=C/C=C/C1CCCCC1)NC1=C[C@@](O)(/C=C/C=C/C=C/C(=O)NC2=C(O)CCC2=O)[C@@H]2O[C@@H]2C1=O gave a GI50 of 24.7 µM (PaTu 8988t; CellTiter-Glo; 78 h).
Nc1ncnc2c1ncn2[C@@H]1O[C@H](CO)[C@@H](O)[C@H]1O — result for “T cell proliferation”: 68.7 a.u. and 62.8 a.u. and 63.6 a.u. (activated human T cells; 100 nM; higher = more proliferation).
Cc1nc2cc(NCc3ccc(F)cc3)ccc2s1 — result for “reduction in viability”: 2% (sample A patient iPSC-derived NPCs; MTS; 10 µM, 24 h).
The viability of NC(=O)C1CCCc2c1[nH]c1ccc(Cl)cc21 (racemic) is reported as 159% (OCI-Ly1; 0.5 µM, 120 h).
Under “lowest effective concentration”, CNc1nc2c(c(N3CC(=O)Nc4cc(OC)ccc43)n1)CCC2 is recorded as ≥ 1 nM (HCI-10-Luc2; chemotaxis; together with: human HGF 50 nM).
The viability of COc1ccc(Cn2ccc3ccc(C(=O)NO)cc32)cc1 is reported as 89.7% (OCI-Ly1; 1 µM, 120 h).
COc1cccc2c1C(=O)c1c(O)c3c(c(O)c1C2=O)C[C@@](O)(C(=O)CO)C[C@@H]3O[C@H]1C[C@H](N)[C@H](O)[C@H](C)O1 gave a maximal cytotoxicity of 92.2% (NCI-H292; WST-1; concentration not given, 72 h, highest tested concentration).
With COc1cccc2c1C(=O)c1c(O)c3c(c(O)c1C2=O)C[C@@](O)(C(=O)CO)C[C@@H]3O[C@H]1C[C@H](N)[C@H](O)[C@H](C)O1 the apoptosis was 12.1 ± 1.96 (COS-7; 100 µM, 24 h, 0.1% DMSO, unit not given; baseline: control).
For COC(=O)CCc1ccc(OCC(O)CNC(C)C)cc1 (centres unmarked), the Kd was 44.2 pM (Nuclear receptor subfamily 2 group C member 2 ligand-binding domain; SPR imaging).

Repeated from above:
For COC(=O)CCc1ccc(OCC(O)CNC(C)C)cc1 (centres unmarked), the Kd was 44.2 pM (Nuclear receptor subfamily 2 group C member 2 ligand-binding domain; SPR imaging).
For CCCCCCCCCc1ccc(OCCOCCOCCOCCOCCOCCOCCOCCOCCO)cc1, the EC50 was 24.4 µM (iPSC-derived cardiomyocytes; concentration-response curve, refers to: MyBP-C/MYH ratio; 24 h).
For Cn1cc(-c2ccc(-c3cncc(Cl)c3N3CCC4(CCNC4=O)CC3)cc2)cn1, “log2 fold change” read -2.29 (COLO 205; gene expression, microarray, refers to: AURKA mRNA; concentration not given, 6 h; baseline: untreated cells).
Oc1cc(O)cc(/C=C/c2ccc(O)c(O)c2)c1 has a viability of 153% (OCI-Ly1; 0.5 µM, 120 h).
Oc1cc(O)c2cc(O)c(-c3cc(O)c(O)c(O)c3)[o+]c2c1 has a viability of 165% (OCI-Ly1; 1 µM, 120 h).
